Published values gathered from unrelated publications.
FGFR2: Fibroblast growth factor receptor 2 (FGFR2, Homo sapiens, UniProt P21802)

C=CC(=O)N1Cc2nc(-c3cc(-c4cc(Cl)cnc4Cl)c(F)cc3F)n(-c3ccncn3)c2C1  inhibition (FGFR2; cell-free assay; 1 µM): -5%
CNC(=O)C[C@H](Cc1ccc(C#N)cc1)NC(=O)c1cc(-c2ccc(CN[C@H](C)c3ccc(C)cc3)o2)ccc1Cl  activity vs control (FGFR2; enzyme activity, inhibitor; 1 µM): 102%
Nc1ncc2c(n1)-c1c([nH]c3ccc(C4=CCOCC4)cc13)CCC2  remaining binding (FGFR2; binding, competition with immobilised ligand; 1 µM): 100%
COc1c(OCCCN2CCOCC2)ccc2c1N=C(NC(=O)c1cnc(N)nc1)N1CCN=C21  remaining activity (FGFR2; kinase activity, inhibitor; 1 µM; reference: untreated control): 105%
Nc1ncc(-c2cc(-c3cnn(CC(F)(F)F)c3)ncc2F)nc1C(=O)NC1CNCC(F)C1 (centres unmarked)  remaining activity (FGFR2; enzyme activity; 1 µM; reference: DMSO control): 94%
O=C(Cc1ccc(OCc2ccccc2)cc1)NC1(C(=O)O)CCN(C(=O)c2ccc(-c3cccc(Cl)c3)cc2)CC1  activity vs control (FGFR2; enzyme activity, inhibitor; 10 µM): 100%
C=C1CCCCCCCCCC(CO)C1=O (centres unmarked)  remaining signal (FGFR2; cell-free assay; 10 µM): 100%
COc1ccc(NC(=O)Nc2ccc3c(c2)C(=O)N(C(C)CO)CC(C)C(CN(C)Cc2ccc4c(c2)OCO4)O3)cc1 (centres unmarked)  remaining activity (Fibroblast growth factor receptor 2 (FGFR2, Homo sapiens, UniProt P21802, N549H); kinase activity; 0.03 µM; reference: control): 92%
CN1CCN(c2ccc(Nc3ncc(Cl)c(Nc4ccccc4P(C)(C)=O)n3)cc2Br)CC1  inhibition (FGFR2; enzyme activity, inhibitor; 0.1 µM): 82.2%
Cc1ccc(-c2c(/C=C(\C#N)C(=O)NC(C)C)n(CCCO)c3ncnc(N)c23)cc1  remaining binding (FGFR2; cell-free assay, competition with immobilised ligand; 1 µM): 100%
NC(=O)C[C@H]1CCc2sc3ncnc(O[C@H]4CC[C@H](N5CCOCC5)CC4)c3c21  inhibition (FGFR2; enzyme activity, inhibitor; 10 µM): -5%
O=C=[N][Ru-4]123([n]4c5ccc(O)cc5c5c6c(c7cc(F)c[n+]1c7c54)C(=O)NC6=O)[S+]1CC[S+]2CC[S+]3CC1 (centres unmarked)  remaining activity (FGFR2; enzyme activity; 100 nM, human enzyme, added: 10 µM ATP; reference: untreated): 118%
CCn1cc(C(=O)O)c(=O)c2c(N)c(F)c(NC3CCCCC3)cc21  inhibition (FGFR2; kinase activity; 0.1 µM, added: ATP at Km): 2.6%
COc1c(Cl)cccc1Nc1c(-c2ccncc2C#C[C@@]2(C)CCCN2C(=O)/C=C/CN(C)C)[nH]c2c1C(=O)NCC2  remaining binding (FGFR2; cell-free assay, competition with immobilised ligand; 3 µM): 100%

For quick reference, copied from above:
CCn1cc(C(=O)O)c(=O)c2c(N)c(F)c(NC3CCCCC3)cc21  inhibition (FGFR2; kinase activity; 0.1 µM, added: ATP at Km): 2.6%
COc1c(Cl)cccc1Nc1c(-c2ccncc2C#C[C@@]2(C)CCCN2C(=O)/C=C/CN(C)C)[nH]c2c1C(=O)NCC2  remaining binding (FGFR2; cell-free assay, competition with immobilised ligand; 3 µM): 100%
